Results gathered from unrelated publications.
A part holds a random share of what one study measured.
Sequence of UniProt Q16539 (whole entry, looked up): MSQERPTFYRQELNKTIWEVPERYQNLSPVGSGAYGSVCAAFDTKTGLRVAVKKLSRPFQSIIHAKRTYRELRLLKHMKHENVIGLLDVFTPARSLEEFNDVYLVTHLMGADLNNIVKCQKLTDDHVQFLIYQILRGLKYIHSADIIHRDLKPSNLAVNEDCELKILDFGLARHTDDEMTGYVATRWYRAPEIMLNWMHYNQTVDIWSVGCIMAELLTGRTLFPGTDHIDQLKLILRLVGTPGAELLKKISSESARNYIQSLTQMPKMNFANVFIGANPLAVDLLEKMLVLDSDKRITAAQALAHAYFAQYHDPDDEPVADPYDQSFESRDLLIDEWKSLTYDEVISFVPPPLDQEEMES
Sequence of UniProt Q8IY84 (whole entry, looked up): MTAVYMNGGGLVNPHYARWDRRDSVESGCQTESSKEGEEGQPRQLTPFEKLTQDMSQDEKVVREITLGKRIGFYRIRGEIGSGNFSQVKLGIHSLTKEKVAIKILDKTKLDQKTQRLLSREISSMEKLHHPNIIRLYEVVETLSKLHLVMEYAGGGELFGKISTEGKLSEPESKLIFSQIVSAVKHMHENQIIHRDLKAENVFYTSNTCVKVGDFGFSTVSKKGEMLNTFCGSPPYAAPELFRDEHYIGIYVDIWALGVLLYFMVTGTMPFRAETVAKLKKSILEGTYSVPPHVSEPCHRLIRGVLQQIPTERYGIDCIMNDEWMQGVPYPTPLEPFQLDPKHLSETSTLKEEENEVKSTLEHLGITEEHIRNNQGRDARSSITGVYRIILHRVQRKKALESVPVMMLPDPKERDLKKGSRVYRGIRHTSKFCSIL
Sequence of UniProt P07949 (whole entry, looked up): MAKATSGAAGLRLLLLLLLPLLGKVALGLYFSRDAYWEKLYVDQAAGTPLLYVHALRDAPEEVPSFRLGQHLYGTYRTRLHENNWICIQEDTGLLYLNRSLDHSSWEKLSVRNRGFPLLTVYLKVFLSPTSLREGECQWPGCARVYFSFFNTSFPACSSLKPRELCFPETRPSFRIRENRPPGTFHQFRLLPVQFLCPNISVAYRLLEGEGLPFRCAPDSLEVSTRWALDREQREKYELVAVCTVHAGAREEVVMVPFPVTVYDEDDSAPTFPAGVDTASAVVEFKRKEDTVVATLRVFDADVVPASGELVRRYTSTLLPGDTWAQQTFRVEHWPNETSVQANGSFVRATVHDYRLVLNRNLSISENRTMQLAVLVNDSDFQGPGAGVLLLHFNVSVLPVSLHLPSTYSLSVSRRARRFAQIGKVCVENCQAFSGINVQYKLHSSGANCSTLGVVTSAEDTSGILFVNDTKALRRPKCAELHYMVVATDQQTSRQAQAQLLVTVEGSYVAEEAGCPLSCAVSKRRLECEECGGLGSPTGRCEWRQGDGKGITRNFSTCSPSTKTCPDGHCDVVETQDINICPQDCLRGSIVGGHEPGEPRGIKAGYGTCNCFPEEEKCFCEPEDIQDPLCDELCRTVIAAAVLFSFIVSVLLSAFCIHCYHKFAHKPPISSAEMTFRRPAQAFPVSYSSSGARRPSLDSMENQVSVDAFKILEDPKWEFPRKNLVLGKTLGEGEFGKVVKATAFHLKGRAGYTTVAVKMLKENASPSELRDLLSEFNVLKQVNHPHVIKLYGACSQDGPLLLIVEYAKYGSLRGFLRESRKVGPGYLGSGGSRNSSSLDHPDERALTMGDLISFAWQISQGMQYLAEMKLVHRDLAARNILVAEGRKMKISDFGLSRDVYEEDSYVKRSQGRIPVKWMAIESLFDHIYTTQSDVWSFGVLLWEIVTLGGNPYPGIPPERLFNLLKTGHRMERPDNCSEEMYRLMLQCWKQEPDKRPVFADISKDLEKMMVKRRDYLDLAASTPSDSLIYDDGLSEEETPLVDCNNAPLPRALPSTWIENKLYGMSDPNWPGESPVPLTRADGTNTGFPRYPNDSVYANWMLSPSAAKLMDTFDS
Sequence of UniProt Q08881 (whole entry, looked up): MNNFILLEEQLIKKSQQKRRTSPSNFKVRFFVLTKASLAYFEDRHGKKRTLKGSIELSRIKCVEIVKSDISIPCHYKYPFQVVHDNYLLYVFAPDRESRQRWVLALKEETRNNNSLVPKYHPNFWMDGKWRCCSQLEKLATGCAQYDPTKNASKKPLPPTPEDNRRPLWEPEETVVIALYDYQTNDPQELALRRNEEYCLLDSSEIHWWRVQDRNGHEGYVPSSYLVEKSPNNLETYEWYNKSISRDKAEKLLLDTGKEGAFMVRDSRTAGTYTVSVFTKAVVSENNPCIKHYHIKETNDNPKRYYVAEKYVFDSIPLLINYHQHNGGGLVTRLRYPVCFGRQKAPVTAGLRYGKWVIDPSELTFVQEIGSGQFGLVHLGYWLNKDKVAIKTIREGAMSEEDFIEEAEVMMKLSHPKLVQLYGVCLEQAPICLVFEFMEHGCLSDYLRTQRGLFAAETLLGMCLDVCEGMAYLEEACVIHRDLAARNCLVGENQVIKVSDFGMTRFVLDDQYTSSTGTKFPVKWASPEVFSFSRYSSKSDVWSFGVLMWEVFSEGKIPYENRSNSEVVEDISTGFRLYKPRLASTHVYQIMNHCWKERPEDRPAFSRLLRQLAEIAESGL
Sequence of UniProt Q9UHD2 (whole entry, looked up): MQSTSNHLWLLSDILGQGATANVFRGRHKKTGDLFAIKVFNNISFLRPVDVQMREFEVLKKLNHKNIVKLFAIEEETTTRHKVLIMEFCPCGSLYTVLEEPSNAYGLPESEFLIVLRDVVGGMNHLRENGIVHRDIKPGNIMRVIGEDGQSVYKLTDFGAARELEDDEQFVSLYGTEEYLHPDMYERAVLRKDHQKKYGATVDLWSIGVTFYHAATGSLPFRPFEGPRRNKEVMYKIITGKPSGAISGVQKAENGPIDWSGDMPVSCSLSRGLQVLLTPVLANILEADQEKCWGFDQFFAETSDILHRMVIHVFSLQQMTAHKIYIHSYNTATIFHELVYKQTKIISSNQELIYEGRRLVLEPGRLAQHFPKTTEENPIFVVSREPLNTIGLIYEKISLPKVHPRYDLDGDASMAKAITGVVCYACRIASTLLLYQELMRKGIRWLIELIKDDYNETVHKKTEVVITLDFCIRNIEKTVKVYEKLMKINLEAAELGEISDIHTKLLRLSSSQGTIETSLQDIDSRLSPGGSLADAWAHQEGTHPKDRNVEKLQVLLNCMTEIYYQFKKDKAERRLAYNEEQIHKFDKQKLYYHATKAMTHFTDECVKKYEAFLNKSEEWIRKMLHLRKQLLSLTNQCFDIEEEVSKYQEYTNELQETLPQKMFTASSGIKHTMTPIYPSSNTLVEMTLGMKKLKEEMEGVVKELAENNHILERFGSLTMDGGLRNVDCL
Sequence of UniProt O95819 (whole entry, looked up): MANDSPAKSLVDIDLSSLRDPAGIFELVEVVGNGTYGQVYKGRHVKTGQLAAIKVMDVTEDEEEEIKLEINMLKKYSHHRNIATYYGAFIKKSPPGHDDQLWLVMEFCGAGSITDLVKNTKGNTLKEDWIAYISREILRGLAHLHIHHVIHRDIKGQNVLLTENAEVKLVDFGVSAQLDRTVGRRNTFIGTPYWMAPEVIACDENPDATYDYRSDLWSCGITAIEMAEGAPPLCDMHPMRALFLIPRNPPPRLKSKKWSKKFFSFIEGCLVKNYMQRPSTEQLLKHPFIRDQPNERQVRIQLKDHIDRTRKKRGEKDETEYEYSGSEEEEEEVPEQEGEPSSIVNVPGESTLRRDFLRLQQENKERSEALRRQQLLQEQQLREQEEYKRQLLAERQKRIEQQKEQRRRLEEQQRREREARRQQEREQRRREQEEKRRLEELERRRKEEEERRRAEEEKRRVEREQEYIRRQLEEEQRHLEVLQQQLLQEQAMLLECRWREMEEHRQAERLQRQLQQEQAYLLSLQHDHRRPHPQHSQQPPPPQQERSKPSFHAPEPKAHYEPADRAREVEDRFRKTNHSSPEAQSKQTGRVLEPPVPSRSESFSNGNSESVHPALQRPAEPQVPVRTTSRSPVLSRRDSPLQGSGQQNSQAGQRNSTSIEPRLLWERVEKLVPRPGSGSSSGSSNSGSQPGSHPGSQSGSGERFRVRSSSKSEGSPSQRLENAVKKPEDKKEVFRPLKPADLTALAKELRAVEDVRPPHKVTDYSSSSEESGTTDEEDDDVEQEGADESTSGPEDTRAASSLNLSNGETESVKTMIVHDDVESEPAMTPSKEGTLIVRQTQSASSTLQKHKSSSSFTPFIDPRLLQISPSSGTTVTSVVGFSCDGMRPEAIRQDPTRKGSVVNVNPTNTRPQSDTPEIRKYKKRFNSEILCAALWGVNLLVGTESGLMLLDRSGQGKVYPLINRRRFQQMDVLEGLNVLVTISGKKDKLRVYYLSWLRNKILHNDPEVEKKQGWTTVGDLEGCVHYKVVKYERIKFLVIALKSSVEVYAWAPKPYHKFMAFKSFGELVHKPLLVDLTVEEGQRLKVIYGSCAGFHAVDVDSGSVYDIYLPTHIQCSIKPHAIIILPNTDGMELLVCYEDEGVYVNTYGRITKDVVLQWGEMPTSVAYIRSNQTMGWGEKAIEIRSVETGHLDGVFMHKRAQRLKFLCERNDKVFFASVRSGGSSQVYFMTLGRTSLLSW

Block 1
Target: Beta-adrenergic receptor kinase 1 (GRK2, Homo sapiens, UniProt P25098)
Observed: enzyme activity
Action: inhibitor
Concentration: 0.5 µM
Relative to: control
Construct (P25098 1-689): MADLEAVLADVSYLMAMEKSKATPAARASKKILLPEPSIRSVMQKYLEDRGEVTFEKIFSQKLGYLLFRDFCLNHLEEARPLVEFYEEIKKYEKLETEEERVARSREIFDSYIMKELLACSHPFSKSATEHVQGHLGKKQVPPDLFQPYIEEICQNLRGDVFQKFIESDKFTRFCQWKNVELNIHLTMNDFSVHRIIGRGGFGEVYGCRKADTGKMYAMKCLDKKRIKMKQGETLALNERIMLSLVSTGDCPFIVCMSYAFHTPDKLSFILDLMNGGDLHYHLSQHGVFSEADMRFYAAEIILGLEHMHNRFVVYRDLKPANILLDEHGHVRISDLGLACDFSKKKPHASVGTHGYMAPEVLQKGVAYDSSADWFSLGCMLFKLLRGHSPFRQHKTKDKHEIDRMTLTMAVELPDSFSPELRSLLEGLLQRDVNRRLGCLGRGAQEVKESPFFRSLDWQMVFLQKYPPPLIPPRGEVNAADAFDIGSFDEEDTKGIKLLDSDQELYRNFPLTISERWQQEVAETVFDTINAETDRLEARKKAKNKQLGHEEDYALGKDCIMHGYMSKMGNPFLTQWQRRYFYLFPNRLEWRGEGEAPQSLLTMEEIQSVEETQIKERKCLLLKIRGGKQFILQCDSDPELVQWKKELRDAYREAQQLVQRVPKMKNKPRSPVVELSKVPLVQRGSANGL
Compound | remaining activity [%]
Cc1nc(-c2ccccc2)c(-c2ccncc2)o1 | 100
COc1cc2ncnc(Nc3ccc(Oc4ccccc4)cc3)c2cc1OC | 101
O=C1NC(=O)C(c2cn(CCCO)c3ncccc23)=C1c1cnccn1 | 114
COc1cc2ncnc(Nc3ccc(F)c(Cl)c3)c2cc1OCCCN1CCOCC1 | 93.3
Cn1sc(=O)n(Cc2ccccc2)c1=O | 96.7
N#CC(C#N)=C(N)/C(C#N)=C/c1ccc(O)cc1 | 104
Nc1[nH]nc2nc3ccccc3nc12 | 101

Block 2
SMILES: CN([C@@H]1CCc2c(CC(=O)O)c3ccccc3n2C1)S(=O)(=O)c1ccc(F)cc1
Observed: cell-free assay
Technique: competition with immobilised ligand
Concentration: 1 µM
target | remaining binding
MAP3K10 (Homo sapiens, UniProt Q02779) | 100%
MAPK10 (Homo sapiens, UniProt P53779) | 100%
MINK1 (Homo sapiens, UniProt Q8N4C8) | 100%
ITK (Homo sapiens, UniProt Q08881) | 96%
MAPK9 (Homo sapiens, UniProt P45984) | 98%
TBK1 (Homo sapiens, UniProt Q9UHD2) | 100%
MAPK14 (Homo sapiens, UniProt Q16539) | 100%
NIM1K (Homo sapiens, UniProt Q8IY84) | 100%
Tyrosine-protein kinase ABL1, phosphorylated (ABL1, Homo sapiens, UniProt P00519, T315I) | 98%
RET (Homo sapiens, UniProt P07949) | 100%
MAP4K4 (Homo sapiens, UniProt O95819) | 100%
TGFBR2 (Homo sapiens, UniProt P37173) | 100%
MAP2K3 (Homo sapiens, UniProt P46734) | 84%

Block 3
Target: Eukaryotic initiation factor 4A-I (EIF4A1, Homo sapiens, UniProt P60842, residues 1-406, full length assumed)
Sequence of UniProt P60842 (whole entry, looked up): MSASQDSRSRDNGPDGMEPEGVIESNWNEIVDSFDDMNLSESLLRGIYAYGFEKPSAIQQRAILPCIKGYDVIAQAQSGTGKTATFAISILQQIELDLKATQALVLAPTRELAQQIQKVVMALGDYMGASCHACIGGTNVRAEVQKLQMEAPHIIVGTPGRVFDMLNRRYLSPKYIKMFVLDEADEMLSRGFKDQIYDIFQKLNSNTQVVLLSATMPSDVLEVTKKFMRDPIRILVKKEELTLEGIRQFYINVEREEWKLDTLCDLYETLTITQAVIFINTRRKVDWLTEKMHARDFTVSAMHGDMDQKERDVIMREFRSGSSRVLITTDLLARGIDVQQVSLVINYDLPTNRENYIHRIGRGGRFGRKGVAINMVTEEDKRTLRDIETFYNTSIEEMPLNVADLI
Technique: RNA Bind-n-Seq
Molecule type: RNA
Medium: in vitro
Concentration: 15 pmol
Notes: 4-mer, random 30-nt RNA, single round
Together with: DMSO vehicle, 2 mM AMP-PNP
Relative to: input library
Direction: higher = stronger binding
Oligonucleotide | 4-mer enrichment
GGAU | 0.985 fold
UUUC | 0.904 fold
UUAC | 0.907 fold
CAAA | 1.51 fold
GCGG | 1.13 fold
GACC | 2.01 fold
GUUA | 0.761 fold
GUGC | 0.879 fold

Block 4
Target: Transcription factor SOX-2, HMG box (SOX2, Homo sapiens, UniProt P48431, residues 37-118)
Sequence of UniProt P48431 (37-118, looked up): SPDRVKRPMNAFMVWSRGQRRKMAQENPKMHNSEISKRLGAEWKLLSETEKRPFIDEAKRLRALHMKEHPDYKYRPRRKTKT
Technique: protein-binding microarray
Molecule type: hairpin DNA
Medium: in vitro
Concentration: not given
Notes: whole hairpin DNA, median over replicate spots
Relative to: not given
Direction: higher = stronger binding
Constant ends, left off below: GCAGGCCC … GGGCCTGCACACTCTTTCCCTACACGAC
Oligonucleotide | median fluorescence [a.u.]
ACTATGGGCCTCCTGGCCCATAGT (5mC at 10) | 2420
ACTATGGGCCTCCTGGCCCATAGT | 2510
ACAGTGGGCCTCCTGGCCCACTGT | 2410
ACAATCTGCCTCCTGGCAGATTGT (5mC at 14) | 2770
ACAATTGGCCTCCTGGCCAATTGT | 4440
CGAATGGGCCTCCTGGCCCATTCG (5mC at 31) | 2390
ACAATGGGCCTCCTGGCCCATTGT | 3080
ACAAGGGGCCTCCTGGCCCCTTGT (5mC at 28) | 2460

Some of these lines once more (block 2):
target | remaining binding
MAP3K10 (Homo sapiens, UniProt Q02779) | 100%
ITK (Homo sapiens, UniProt Q08881) | 96%
Tyrosine-protein kinase ABL1, phosphorylated (ABL1, Homo sapiens, UniProt P00519, T315I) | 98%
TBK1 (Homo sapiens, UniProt Q9UHD2) | 100%
MAPK14 (Homo sapiens, UniProt Q16539) | 100%
MINK1 (Homo sapiens, UniProt Q8N4C8) | 100%
